{"data": "Measured values of several laboratories", "note": "Every numbered part comes from another study and shows a few of its results, in no order. Changes are numbered by the printed parent chain."}
{"data": "Series 1", "target": "CCNB1, cyclin fold, Cln2 fusion (human)", "method": "yeast growth competition, sequencing", "medium": "yeast", "notes": "weak parent motif", "relative to": "not given", "reading": "higher = stronger binding", "starting sequence": "SCAPER docking peptide (human); SNARRSLNFGGST"}
{"Substitution": "N2K", "normalised enrichment score": 0.0496}
{"Substitution": "S12I", "normalised enrichment score": 0.221}
{"Substitution": "R5A L7A", "normalised enrichment score": -0.11}
{"Substitution": "S6P", "normalised enrichment score": 0.591}
{"Substitution": "R5E", "normalised enrichment score": 0.16}
{"Substitution": "A3I", "normalised enrichment score": 1.14}
{"data": "Series 2", "target": "Fragile X messenger ribonucleoprotein 1, C-terminal low-complexity region (Fmr1, Mus musculus, UniProt P35922)", "method": "RNA Bind-n-Seq", "form": "RNA", "medium": "in vitro", "tested at": "200 nM", "notes": "whole 134-nt RNA, ends assumed", "added": "150 mM KCl", "relative to": "input library", "reading": "higher = stronger binding", "constant ends, left off below": "GGGAGUUCUACAGUCCGACGAUC … UGGAAUUCUCGGGUGUCAAGG"}
{"Oligonucleotide": "CCUGUGCUACACAUCGUAUGUACCGAAUCGGGUUUUUUUGGGAAAAAGGGUUUUUUUGGGAAAGUAUUAUGUUACGCCGUUCGGAUCUGC", "log2 enrichment": -0.827}
{"Oligonucleotide": "UCCUGUGCUACACAUCGUAUGUACCGAAUCGGGUUUGGGAAAAAAAGGGUUUUUUUGGGAAAGUAUUAUGUUACGCCGUUCGGAUCUGCA", "log2 enrichment": 0.0226}
{"Oligonucleotide": "UCAAGUCCUGUGCUACACAUCGUAUGUACCGAAUCGGAAAGGAAAAAAAGGAGGAAAGUAUUAUGUUACGCCGUUCGGAUCUGCACUUCC", "log2 enrichment": -0.408}
{"Oligonucleotide": "CACAGACAACACGCACCCACACAGACACAGAGGGAAGGGGUUGGGAUGGGGACAAAGUGCACAGCAGGGCGGGGUAGGACCCCAGCCCCU", "log2 enrichment": 1.26}
{"Oligonucleotide": "ACCAUGCAGGUGGGCAUCUUUGGGAAGUGGGGCAAGGGGGGGAUAGGGUGGGGGGUAACACUUUGGGAACAGGUGGUCCCAGGUCGUUUC", "log2 enrichment": 0.828}
{"Oligonucleotide": "UGGGAGGUGGAUUUUGUUUAUGUUUUUAGCUCAUUUCCAGGGGUGGGAAUUUUUUUUUAAUAUGUGUCAUGAAUAAAGUUGUUUUUGAAA", "log2 enrichment": 0.124}
{"data": "Series 3", "target": "Interferon regulatory factor 5, full length, phosphomimetic (IRF5, Homo sapiens, UniProt Q13568-2, residues 1-514, K96S/S451D/S453D/S456D/S462D)", "method": "protein-binding microarray", "form": "double-stranded DNA, one strand shown", "medium": "in vitro", "tested at": "250 nM", "notes": "60-bp whole probe", "added": "salmon DNA 0.4 mg/ml", "relative to": "random background probes", "reading": "higher = stronger binding", "constant ends, left off below": "GCCTAGCAC … GTCTTGATTCGCTTGACGCTGCTG"}
{"Oligonucleotide": "GACAGTTTCGGGACTGGGGACGTGCTA", "log fluorescence [z-score]": 7.71}
{"Oligonucleotide": "GACGGTATCTGTATCGGGACGTGCTAG", "log fluorescence [z-score]": 1.71}
{"Oligonucleotide": "TTAGGACTGCTACTGCTATAGTGCTAG", "log fluorescence [z-score]": -0.342}
{"Oligonucleotide": "GTTTGTGTGTGTATGTGGTCGTGCTAG", "log fluorescence [z-score]": 0.108}
{"Oligonucleotide": "TTAGGTTTCCTCCTCCTTTAGTGCTAG", "log fluorescence [z-score]": 0.512}
{"Oligonucleotide": "TTAGGTCTCCTTTTCCTTGAGTGCTAG", "log fluorescence [z-score]": 0.197}
{"Oligonucleotide": "TTAGGTATCAGACTGGGTTAGTGCTAG", "log fluorescence [z-score]": 0.0138}
{"Oligonucleotide": "GACGGTATCGGACTGCGGACGTGCTAG", "log fluorescence [z-score]": 1.1}
{"Oligonucleotide": "TGTCTTCCCCTCTCTTTCCAAGTGCTA", "log fluorescence [z-score]": 0.495}
{"data": "Further values, each from its own experiment"}
{"Molecule": "PhoQ, residues 284 288 289 292 302 303 QWGLFV", "target": "PhoP, residues 12 14 15 18 19 GQAIL (Escherichia coli, UniProt P23836)", "assay": "Sort-seq, measured: YFP reporter", "test system": "E. coli", "setting": "PhoQ-PhoP variant library, added: 10 µM Mg2+", "scale": "relative to: high Mg2+ state, higher = stronger signaling", "endpoint": "fold induction", "value": 1.59}
